Measurements pooled from the literature.
Compare with care: the assays were run in different laboratories.
Cell line: RPMI-8226

Compound | assay | setting | how to read | quantity | value
CCOc1cncc(-c2ccc(NC(=O)C3(c4ccnc(NS(=O)(=O)C5CC5)n4)CCOCC3)nc2)n1 | cell growth or viability, ATP luminescence | 72 h | – | IC50 | 347 nM
O=C(Nc1nnc2c1c(-c1ccc(Cl)cc1)nc1sc(=Cc3ccco3)c(=O)n12)c1ccccc1 (mixture of isomers) | SRB | 10 µM, NCI60 single-dose screen | baseline: untreated | cell growth | 44.4%
CC(C)c1ccc(N(C)c2ccc3c(c2)OCC[C@H]3CNc2cnccc2C(=O)O)cc1 | cell growth or viability, ATP luminescence | 7 days | – | IC50 | 12.5 nM
CNS(=O)(=O)Nc1nccc(Cc2c(C)c3ccc(Oc4ncccc4F)cc3oc2=O)c1F | cell viability | 7 days | – | IC50 | 5.25 nM
CN(C)CCN1CCN(c2ccc3nc(-c4ccc5nc(-c6ccc(C(F)(F)F)cc6)[nH]c5c4)[nH]c3c2)CC1 | SRB | 10 µM, 48 h | – | growth percent | 19.1%
CCCC(CCC)C(=O)OCc1cn(-c2cc3ccccc3oc2=O)nn1 | NCI60 single-dose screen | 10 µM | – | growth percentage | 100%
Cc1ccc([N+](=O)[O-])cc1S(=O)(=O)N(C)/N=C/c1cnc2ccc(Br)cn12 | cytotoxicity, MTS | – | – | IC50 | 77 nM
CC(C)C[C@H](NC(=O)[C@H](Cc1ccccc1)NC(=O)[C@H](CCCNC(=N)N)NC(=O)[C@H](C)N)B(O)O | cell growth or viability, ATP luminescence | – | – | EC50 | 318 nM

A few entries again:
Compound | assay | setting | how to read | quantity | value
O=C(Nc1nnc2c1c(-c1ccc(Cl)cc1)nc1sc(=Cc3ccco3)c(=O)n12)c1ccccc1 (mixture of isomers) | SRB | 10 µM, NCI60 single-dose screen | baseline: untreated | cell growth | 44.4%
